# Assay results of several laboratories.
# Numbered parts are unrelated; each lists some results of a single study.
# Sequence of UniProt Q5S007 (whole entry, looked up): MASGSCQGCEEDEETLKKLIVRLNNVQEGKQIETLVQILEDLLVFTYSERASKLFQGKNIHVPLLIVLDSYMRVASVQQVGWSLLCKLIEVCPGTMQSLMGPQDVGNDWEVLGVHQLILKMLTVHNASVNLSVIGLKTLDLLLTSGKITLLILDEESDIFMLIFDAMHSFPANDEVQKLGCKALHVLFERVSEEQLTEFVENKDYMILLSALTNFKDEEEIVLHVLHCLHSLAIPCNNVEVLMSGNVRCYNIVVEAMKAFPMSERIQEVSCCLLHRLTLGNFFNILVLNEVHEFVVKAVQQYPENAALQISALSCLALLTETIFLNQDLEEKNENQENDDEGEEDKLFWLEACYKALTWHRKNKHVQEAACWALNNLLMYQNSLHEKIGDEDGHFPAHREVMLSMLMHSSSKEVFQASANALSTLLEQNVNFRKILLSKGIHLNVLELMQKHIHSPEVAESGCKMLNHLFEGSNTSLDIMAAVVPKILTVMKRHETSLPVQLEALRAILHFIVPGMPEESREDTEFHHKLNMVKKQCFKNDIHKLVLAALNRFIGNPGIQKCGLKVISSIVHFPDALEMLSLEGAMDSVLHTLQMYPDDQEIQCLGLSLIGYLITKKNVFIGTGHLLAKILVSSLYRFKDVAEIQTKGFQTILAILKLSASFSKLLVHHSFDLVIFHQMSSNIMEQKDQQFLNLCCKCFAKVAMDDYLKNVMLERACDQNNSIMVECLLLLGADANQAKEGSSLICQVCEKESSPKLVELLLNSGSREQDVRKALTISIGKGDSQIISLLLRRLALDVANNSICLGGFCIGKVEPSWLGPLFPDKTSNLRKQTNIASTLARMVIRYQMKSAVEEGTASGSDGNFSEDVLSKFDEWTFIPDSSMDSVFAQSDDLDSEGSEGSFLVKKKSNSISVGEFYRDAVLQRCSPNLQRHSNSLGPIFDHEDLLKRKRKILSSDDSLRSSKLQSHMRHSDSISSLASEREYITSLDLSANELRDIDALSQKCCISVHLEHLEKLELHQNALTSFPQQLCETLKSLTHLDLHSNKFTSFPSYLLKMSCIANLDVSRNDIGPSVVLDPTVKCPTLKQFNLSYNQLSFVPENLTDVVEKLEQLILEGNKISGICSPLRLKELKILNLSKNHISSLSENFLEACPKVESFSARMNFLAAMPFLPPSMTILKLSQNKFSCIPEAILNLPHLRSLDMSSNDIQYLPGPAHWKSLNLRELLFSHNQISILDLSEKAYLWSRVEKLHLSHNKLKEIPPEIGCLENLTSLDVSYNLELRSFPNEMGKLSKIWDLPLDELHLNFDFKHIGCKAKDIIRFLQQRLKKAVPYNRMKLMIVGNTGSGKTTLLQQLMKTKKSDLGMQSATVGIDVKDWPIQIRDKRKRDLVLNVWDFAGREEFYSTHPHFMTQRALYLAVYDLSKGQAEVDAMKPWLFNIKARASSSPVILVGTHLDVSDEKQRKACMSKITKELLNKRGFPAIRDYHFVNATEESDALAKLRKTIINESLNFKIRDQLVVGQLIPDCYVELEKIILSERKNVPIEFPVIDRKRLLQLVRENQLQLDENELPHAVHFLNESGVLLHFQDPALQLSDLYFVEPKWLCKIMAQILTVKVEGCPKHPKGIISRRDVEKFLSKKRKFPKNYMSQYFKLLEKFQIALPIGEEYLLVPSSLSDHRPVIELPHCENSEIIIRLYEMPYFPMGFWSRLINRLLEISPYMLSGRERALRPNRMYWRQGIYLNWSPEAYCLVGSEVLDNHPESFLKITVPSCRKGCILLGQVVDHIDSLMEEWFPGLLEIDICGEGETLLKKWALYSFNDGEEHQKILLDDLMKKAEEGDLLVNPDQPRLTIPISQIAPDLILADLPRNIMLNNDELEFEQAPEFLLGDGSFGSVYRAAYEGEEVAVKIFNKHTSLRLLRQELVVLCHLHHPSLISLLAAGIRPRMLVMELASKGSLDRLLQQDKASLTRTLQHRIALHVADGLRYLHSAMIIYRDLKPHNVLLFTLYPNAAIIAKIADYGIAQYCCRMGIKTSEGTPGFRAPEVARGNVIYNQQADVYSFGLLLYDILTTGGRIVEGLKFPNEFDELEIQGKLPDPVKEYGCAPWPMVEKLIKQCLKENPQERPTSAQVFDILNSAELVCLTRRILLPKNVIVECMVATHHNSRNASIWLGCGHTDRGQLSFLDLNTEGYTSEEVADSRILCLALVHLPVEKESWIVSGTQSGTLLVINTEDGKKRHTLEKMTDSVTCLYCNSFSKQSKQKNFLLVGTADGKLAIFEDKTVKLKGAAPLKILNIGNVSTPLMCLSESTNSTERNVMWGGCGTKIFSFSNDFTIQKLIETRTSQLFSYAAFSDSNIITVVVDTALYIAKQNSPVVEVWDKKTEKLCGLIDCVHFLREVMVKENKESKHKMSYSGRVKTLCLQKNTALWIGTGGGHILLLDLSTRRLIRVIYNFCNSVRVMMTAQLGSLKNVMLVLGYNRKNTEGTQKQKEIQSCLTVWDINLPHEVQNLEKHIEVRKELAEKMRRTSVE
# Sequence of UniProt Q9NRH2 (whole entry, looked up): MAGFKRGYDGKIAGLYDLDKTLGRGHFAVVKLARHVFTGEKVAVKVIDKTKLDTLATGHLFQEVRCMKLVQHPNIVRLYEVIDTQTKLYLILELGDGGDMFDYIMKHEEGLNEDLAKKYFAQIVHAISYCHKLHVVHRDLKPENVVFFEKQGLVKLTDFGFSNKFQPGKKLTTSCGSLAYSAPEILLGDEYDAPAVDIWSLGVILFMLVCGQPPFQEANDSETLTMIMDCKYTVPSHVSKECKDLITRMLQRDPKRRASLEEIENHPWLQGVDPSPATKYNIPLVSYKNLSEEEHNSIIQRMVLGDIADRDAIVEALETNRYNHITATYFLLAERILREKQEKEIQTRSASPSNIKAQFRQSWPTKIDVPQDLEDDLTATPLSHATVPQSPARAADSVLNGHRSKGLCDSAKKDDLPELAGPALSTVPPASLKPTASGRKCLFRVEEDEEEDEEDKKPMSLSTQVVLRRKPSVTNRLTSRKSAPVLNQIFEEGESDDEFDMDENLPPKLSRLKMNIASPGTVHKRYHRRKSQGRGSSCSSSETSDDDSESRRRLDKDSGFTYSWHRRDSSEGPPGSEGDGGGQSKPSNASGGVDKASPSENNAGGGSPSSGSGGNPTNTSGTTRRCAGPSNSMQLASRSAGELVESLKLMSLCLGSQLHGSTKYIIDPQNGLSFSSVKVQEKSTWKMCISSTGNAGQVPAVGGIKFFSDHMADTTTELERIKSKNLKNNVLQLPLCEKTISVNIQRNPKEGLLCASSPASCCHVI
# Sequence of UniProt O75385 (whole entry, looked up): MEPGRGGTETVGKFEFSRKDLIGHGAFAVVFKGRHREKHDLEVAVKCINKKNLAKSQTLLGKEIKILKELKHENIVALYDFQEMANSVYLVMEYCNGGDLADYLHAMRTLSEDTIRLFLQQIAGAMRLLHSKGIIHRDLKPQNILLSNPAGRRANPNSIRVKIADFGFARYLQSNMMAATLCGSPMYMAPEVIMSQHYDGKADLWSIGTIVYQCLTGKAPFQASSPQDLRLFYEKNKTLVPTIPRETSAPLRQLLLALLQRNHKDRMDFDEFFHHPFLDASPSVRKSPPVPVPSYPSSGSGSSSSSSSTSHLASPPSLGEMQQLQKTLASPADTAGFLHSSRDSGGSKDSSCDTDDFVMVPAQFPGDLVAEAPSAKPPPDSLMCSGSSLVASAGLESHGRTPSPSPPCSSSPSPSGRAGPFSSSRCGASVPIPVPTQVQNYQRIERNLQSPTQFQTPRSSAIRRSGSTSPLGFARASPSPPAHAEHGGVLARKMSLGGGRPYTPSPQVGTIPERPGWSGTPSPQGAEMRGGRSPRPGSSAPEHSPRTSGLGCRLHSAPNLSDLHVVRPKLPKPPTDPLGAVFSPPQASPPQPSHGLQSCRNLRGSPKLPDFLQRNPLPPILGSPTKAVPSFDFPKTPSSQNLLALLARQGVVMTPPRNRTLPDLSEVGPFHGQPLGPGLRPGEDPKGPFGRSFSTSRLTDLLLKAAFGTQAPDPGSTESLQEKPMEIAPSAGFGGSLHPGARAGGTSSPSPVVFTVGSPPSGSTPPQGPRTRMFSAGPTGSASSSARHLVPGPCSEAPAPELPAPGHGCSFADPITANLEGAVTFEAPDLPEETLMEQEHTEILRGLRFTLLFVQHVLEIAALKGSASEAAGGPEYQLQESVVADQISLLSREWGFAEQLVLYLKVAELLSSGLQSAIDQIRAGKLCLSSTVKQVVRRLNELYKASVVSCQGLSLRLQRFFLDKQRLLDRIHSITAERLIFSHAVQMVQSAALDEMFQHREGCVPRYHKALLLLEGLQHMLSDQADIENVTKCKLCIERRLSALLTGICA
# Sequence of UniProt O14920 (whole entry, looked up): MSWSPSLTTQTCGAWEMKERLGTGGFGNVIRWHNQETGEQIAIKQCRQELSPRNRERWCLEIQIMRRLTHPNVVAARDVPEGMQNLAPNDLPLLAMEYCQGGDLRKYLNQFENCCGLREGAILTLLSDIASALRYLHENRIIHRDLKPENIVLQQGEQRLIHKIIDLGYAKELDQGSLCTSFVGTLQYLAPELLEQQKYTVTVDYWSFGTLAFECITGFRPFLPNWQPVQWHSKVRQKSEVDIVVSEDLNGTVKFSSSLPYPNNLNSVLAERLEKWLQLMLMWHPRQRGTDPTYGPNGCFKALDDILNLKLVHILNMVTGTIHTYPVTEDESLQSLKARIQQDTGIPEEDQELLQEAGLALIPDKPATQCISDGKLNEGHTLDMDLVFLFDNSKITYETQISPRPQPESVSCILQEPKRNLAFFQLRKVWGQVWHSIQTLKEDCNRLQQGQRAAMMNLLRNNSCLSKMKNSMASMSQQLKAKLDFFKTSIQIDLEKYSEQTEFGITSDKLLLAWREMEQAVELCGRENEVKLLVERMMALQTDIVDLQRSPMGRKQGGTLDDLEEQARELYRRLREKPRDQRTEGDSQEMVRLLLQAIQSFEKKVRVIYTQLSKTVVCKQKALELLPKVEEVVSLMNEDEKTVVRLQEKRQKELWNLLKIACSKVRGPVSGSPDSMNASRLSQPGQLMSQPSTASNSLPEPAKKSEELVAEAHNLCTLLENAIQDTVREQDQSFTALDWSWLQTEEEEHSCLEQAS

# Block 1 — host: mouse; sample: microsomes or S9; tested at: 2 µM; time: 0.5 h
SMILES,remaining compound [%]
CCc1ccc(C2c3cccn3-c3sc4c(c3CN2C(=O)Nc2ccc(OC)c(OC)c2)CCCC4)cc1 (stereo not drawn),84
NC(=O)c1cccc2c1nc1scc(CN3CCCC3)n12,16.2
CCC(c1ccc(F)cc1)S(=O)(=O)c1ncc(CO)n1C (stereo not drawn),19.8
CCN(C(=O)COC(=O)c1cc2c(C)nn(-c3ccccc3)c2s1)c1cccc2ccccc12,0.96
O=C(N1CCCO1)N(c1ccccc1)c1ccccc1,8.35
Cc1nc(-c2c[nH]c(C(=O)N3CCOc4cc(F)ccc43)c2)cs1,98.5
COc1ccc(F)cc1-n1c(=O)[nH]c2c(c1=O)CCC2,64.4
Cc1ccc(N2CCCS2(=O)=O)cc1NS(=O)(=O)CC12CCC(CC1=O)C2(C)C (stereo not drawn),3.19
CN(CCN1CCCCC1)C(=O)c1c2c(nn1C)CCCC2,0.0996
CCC[C@@H]1CN(c2ncnc3sccc23)C[C@H]1C(=O)O,39.2
O=C(NCC1OCCc2sc(F)cc21)c1ccn2nnnc2c1 (stereo not drawn),56.6
CC(C)COc1cc(=O)n2c(c1C(=O)NCc1ccccc1F)CCCCC2,92.4
CC(C)N(C(=O)CO/C(=C(/c1ccccc1)S(=O)(=O)c1ccccc1)c1ccccc1)c1ccccc1,5.06
COc1ccc(Cl)cc1NC(=O)c1cc2c(OC)ccc(OC)c2n1C,27.5

# Block 2 — SMILES: FC(F)(F)c1ccc2c(c1)nc(-c1cccnc1)n2C1CC1; read-out: cell-free assay; method: competition with immobilised ligand; tested at: 1 µM
target,remaining binding
"CAMK1G (Homo sapiens, UniProt Q96NX5)",100%
"ULK1 (Homo sapiens, UniProt O75385)",100%
"ZAP70 (Homo sapiens, UniProt P43403)",100%
"CSNK1G3 (Homo sapiens, UniProt Q9Y6M4)",100%
"Tyrosine-protein kinase ABL1, phosphorylated (ABL1, Homo sapiens, UniProt P00519, H396P)",100%
"LRRK2 (Homo sapiens, UniProt Q5S007)",100%
"CDKL2 (Homo sapiens, UniProt Q92772)",100%
"PRKCI (Homo sapiens, UniProt P41743)",83%
"IKBKB (Homo sapiens, UniProt O14920)",100%
"WNK1 (Homo sapiens, UniProt Q9H4A3)",100%
"FLT3 (Homo sapiens, UniProt P36888, F691L/ITD)",100%
"PIP5K1C (Homo sapiens, UniProt O60331)",85%
"GRK1 (Homo sapiens, UniProt Q15835)",100%
"DYRK2 (Homo sapiens, UniProt Q92630)",100%
"TRPM6 (Homo sapiens, UniProt Q9BX84)",100%
"MARK1 (Homo sapiens, UniProt Q9P0L2)",100%
"CDK18 (Homo sapiens, UniProt Q07002)",100%
"PRKCQ (Homo sapiens, UniProt Q04759)",100%
"RIOK1 (Homo sapiens, UniProt Q9BRS2)",100%
"ALK (Homo sapiens, UniProt Q9UM73, L1196M)",100%
"PRKCE (Homo sapiens, UniProt Q02156)",97%

# Block 3 — action: inhibitor; tested at: 1 µM
# Compound: C=CC(=O)N1CCC[C@@H](n2nc(-c3ccc(Oc4ccccc4)cc3)c3c(N)ncnc32)C1
target,test,inhibition [%]
"STK35 (Homo sapiens, UniProt Q8TDR2)",enzyme activity,46
"MYLK (Homo sapiens, UniProt Q15746)",enzyme activity,35
"CDC42BPA (Homo sapiens, UniProt Q5VT25)",enzyme activity,0
"GRK2 (Homo sapiens, UniProt P25098)",enzyme activity,18
"SNRK (Homo sapiens, UniProt Q9NRH2)",enzyme activity,2
"FLT3 (Homo sapiens, UniProt P36888, R834Q)",,54
"ROS1 (Homo sapiens, UniProt P08922)",enzyme activity,4
"CDKL3 (Homo sapiens, UniProt Q8IVW4)",enzyme activity,8
"Macrophage colony-stimulating factor 1 receptor, autoinhibited (CSF1R, Homo sapiens, UniProt P07333)",,2
"PIK3C2B (Homo sapiens, UniProt O00750)",enzyme activity,29

# Block 4 — read-out: enzyme activity; action: inhibitor; tested at: 0.5 µM; reference: control
# Target: Leucine-rich repeat serine/threonine-protein kinase 2 (LRRK2, Homo sapiens, UniProt Q5S007)
Structure (SMILES),remaining activity [%]
Cn1nc2c3c(cccc31)C(=O)c1ccccc1-2,55.9
Cc1nc2cc3nc(-c4cccs4)cnc3cc2n1C,106
N#Cc1c(NC(=O)c2cccc3ccccc23)sc2c1CCCC2,100
O=C1C(Cl)=C(N2C(=O)CCC2=O)C(=O)c2ccccc21,103
Nc1cccc(-c2cc3c(Oc4cccc(O)c4)ncnc3[nH]2)c1,93.4
c1ccc(-c2cnc(Nc3ccc(OCCN4CCCC4)cc3)s2)cc1,95.8
CCN(CC)CCNC(=O)c1c(C)[nH]c(/C=C2\C(=O)Nc3ccc(Cl)cc32)c1C,1.44
CN([C@@H](Cc1ccc(OS(=O)(=O)c2cccc3cnccc23)cc1)C(=O)N1CCN(c2ccccc2)CC1)S(=O)(=O)c1cccc2cnccc12,97.1
C[C@@H]1CCN(C(=O)CC#N)C[C@@H]1N(C)c1ncnc2[nH]ccc12,51.3
c1ccc(-c2[nH]ncc2-c2ccnc3ccccc23)nc1,93.7
O=C(NC(NC(=S)Nc1ccc(F)c([N+](=O)[O-])c1)C(Cl)(Cl)Cl)C(c1ccccc1)c1ccccc1 (stereo not drawn),99.3
Ic1cccc(CSc2nnc(-c3ccncc3)o2)c1,91.9
COc1cc2ncnc(Nc3ccc(O)c(Br)c3)c2cc1OC,82.7
CCOc1nc(NC(=O)Cc2cc(OC)ccc2OC)cc(N)c1C#N,90.5
Cc1cc2ncc(-c3ccccc3)nc2cc1C,94.4
O=C(Nc1cccc(Nc2nccc(Nc3cccc(C(F)(F)F)c3)n2)c1)C1CC1,93.7
O=c1cc(-c2cccc3c2Sc2ccccc2S3)oc(N2CCOCC2)c1,102
COc1cc2c(cc1OC)-c1[nH]nc(Nc3cccc(F)c3)c1C2,82.3
CN(C)C[C@H]1CCn2c(c(C3=C(c4cn(C)c5ccccc45)C(=O)NC3=O)c3ccccc32)C1,93.1
COc1cc2ncnc(Nc3cccc(Cl)c3)c2cc1OC,60.9
O=C1c2ccccc2-c2n[nH]c3cccc1c23,62.2
N#C/C(=C\c1ccc(O)c(O)c1)C(=O)NCc1ccccc1,101
Cc1cn(-c2cc(NC(=O)c3ccc(C)c(Nc4nccc(-c5cccnc5)n4)c3)cc(C(F)(F)F)c2)cn1,81.1
CCN(CC)C(=O)c1ccc(Nc2nc(OCC3CCCCC3)c3[nH]cnc3n2)cc1,2.21
